Results of several laboratories.
A part holds a random share of what one study measured. Several values in a cell are separate wells, animals, samples, runs or records.
UniProt P29320, sequence (whole entry, looked up): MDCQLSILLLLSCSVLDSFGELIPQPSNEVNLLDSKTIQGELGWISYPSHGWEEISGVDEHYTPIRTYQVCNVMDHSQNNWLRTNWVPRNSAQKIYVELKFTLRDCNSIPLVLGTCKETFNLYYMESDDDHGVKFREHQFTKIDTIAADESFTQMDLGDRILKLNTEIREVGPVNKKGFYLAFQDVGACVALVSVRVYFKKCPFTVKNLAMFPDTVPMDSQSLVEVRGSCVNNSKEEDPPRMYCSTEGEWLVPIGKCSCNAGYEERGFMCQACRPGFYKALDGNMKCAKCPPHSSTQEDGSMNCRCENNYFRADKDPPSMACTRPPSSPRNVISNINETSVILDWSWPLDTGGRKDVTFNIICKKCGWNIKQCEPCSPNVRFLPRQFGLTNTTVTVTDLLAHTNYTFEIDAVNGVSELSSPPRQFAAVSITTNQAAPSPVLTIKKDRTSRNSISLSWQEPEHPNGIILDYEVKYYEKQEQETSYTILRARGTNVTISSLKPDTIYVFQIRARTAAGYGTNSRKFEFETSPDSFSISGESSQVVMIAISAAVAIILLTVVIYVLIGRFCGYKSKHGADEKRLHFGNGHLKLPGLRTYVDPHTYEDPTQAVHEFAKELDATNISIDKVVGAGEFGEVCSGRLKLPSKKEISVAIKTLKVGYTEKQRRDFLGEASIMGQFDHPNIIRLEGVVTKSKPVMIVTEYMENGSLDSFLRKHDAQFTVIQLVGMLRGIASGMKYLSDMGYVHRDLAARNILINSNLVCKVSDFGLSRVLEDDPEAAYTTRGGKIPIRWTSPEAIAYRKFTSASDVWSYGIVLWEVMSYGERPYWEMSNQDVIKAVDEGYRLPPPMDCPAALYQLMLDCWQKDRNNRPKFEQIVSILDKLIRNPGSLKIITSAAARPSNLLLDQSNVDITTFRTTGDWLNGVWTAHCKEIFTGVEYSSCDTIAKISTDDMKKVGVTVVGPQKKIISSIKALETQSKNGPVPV
UniProt P22607, sequence (whole entry, looked up): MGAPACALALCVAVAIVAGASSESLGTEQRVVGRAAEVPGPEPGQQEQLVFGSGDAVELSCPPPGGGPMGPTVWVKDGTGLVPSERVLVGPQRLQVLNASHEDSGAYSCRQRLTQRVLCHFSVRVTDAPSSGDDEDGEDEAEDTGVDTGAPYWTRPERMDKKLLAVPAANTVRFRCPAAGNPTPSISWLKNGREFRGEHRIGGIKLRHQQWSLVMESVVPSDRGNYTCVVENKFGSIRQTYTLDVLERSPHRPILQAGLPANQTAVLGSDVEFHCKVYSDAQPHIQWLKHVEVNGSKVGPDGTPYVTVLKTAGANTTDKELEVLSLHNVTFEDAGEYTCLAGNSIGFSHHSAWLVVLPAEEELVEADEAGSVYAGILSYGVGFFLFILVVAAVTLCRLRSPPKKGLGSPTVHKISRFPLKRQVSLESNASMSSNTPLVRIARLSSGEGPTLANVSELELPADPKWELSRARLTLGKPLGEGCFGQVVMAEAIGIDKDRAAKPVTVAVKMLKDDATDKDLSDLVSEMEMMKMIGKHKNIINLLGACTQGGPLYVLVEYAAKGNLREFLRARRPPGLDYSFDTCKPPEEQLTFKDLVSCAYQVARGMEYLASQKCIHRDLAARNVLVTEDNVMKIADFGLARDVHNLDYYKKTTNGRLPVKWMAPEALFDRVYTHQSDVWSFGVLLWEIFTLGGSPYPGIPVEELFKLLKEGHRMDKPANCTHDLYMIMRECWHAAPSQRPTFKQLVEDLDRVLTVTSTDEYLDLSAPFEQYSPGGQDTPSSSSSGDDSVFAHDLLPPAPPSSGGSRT
UniProt P06239, sequence (whole entry, looked up): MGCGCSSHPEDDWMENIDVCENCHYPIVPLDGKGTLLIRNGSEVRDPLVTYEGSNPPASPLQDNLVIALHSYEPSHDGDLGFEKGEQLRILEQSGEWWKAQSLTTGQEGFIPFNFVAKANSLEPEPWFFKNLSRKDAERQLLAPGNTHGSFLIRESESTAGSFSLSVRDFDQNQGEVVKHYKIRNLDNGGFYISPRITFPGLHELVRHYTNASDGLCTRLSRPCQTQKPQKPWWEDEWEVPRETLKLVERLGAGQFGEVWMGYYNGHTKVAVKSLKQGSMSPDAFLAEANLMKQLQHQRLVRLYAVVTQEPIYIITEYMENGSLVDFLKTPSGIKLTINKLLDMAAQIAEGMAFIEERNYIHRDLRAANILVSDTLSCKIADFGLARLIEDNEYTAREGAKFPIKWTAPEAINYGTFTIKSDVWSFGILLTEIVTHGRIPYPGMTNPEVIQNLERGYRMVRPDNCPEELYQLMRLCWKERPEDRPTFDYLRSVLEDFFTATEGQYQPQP
UniProt P36507, sequence (whole entry, looked up): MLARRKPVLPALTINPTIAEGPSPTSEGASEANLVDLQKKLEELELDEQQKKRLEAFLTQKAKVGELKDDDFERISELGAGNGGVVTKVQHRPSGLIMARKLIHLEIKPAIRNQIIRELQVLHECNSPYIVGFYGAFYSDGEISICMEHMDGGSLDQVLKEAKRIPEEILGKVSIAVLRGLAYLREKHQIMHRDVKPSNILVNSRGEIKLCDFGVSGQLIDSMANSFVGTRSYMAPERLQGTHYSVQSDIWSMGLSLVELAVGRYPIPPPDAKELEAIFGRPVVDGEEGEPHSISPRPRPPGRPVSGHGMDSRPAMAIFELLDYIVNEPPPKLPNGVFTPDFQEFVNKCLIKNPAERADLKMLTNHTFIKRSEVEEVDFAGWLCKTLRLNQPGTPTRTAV
UniProt P27361, sequence (whole entry, looked up): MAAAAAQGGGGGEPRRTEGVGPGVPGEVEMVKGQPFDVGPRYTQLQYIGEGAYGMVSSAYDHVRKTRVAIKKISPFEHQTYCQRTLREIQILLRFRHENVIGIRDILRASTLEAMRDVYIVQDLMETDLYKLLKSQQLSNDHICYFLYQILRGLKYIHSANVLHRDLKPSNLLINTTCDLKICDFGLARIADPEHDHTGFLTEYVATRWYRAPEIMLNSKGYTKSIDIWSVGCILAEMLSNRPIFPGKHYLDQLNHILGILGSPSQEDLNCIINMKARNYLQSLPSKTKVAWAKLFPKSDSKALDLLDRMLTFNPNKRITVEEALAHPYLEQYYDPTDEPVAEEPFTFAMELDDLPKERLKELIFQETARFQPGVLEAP
UniProt Q04912, sequence (whole entry, looked up): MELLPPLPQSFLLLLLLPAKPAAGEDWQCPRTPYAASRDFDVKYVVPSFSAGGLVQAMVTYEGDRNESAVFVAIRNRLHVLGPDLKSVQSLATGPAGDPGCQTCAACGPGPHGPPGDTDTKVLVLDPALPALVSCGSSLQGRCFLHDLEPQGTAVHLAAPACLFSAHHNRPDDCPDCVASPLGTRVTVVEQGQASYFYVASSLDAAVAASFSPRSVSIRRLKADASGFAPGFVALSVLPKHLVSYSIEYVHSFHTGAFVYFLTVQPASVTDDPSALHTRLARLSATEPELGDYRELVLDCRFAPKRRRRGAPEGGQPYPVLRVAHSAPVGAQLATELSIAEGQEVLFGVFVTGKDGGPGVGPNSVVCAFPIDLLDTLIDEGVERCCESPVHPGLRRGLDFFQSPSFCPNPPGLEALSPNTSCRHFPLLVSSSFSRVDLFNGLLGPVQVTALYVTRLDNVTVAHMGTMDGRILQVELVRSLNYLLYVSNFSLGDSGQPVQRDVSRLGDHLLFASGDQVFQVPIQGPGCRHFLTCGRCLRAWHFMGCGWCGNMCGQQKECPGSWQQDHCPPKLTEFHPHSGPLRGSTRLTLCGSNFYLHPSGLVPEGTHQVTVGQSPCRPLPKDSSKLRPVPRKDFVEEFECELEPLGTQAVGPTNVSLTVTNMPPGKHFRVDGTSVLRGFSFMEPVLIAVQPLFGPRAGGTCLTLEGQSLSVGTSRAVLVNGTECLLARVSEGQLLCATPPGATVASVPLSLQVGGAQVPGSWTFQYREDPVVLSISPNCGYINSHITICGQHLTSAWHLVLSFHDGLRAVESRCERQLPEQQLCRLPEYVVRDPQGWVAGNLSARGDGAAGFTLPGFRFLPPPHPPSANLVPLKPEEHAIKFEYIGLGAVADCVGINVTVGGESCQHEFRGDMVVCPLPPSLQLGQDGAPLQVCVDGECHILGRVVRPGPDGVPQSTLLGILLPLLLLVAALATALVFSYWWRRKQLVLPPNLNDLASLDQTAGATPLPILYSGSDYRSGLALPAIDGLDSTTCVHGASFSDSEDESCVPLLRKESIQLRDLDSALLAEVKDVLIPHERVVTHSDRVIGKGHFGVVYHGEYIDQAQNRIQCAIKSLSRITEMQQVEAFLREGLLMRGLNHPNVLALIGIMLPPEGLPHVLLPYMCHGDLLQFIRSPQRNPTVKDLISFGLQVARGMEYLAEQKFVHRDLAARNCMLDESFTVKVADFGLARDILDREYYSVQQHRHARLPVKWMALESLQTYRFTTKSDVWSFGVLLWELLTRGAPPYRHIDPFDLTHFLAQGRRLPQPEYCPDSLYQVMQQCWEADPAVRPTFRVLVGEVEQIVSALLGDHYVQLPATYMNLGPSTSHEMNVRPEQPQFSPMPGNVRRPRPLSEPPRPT
UniProt P49137, sequence (whole entry, looked up): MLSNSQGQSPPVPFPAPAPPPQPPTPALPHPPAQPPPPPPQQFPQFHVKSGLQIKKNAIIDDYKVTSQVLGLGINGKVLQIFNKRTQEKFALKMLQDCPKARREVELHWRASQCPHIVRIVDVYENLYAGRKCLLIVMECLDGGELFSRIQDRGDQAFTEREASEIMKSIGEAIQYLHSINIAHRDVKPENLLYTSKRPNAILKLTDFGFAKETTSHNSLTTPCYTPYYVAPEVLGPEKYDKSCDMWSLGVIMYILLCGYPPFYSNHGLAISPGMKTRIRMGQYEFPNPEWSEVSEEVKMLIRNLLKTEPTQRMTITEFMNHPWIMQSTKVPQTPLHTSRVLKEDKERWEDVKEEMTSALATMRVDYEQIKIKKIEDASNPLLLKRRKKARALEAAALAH

Series 1
Target: Translocator protein (Tspo, Rattus norvegicus, UniProt P16257)
UniProt P16257, sequence (whole entry, looked up): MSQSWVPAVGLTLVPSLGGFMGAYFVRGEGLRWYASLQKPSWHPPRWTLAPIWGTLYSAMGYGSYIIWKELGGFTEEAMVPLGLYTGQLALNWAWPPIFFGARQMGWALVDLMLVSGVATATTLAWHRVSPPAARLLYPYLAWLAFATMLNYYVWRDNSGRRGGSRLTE
Effect on: radioligand binding
Method: radioligand displacement
Tested at: 10 µM
SMILES	inhibition [%]
CC(C)CC(=O)N1CCc2nc(-c3ccc(Br)cc3)nc(N(C)Cc3ccccc3)c2C1	41
O=C(N[C@H]1CCCCC/C=C\C2C[C@@]2(C(=O)O)NC(=O)[C@@H]2C[C@@H](Oc3ccncc3)CN2C1=O)OC1CCCC1 (stereo partly shown)	-11.1
Cc1c(C(=O)O)cc(-c2ccc(C3CCNCC3)cc2)c2ccc(-c3ccc(C(F)(F)F)cc3)cc12	-32.4
Cc1c(NC(=O)c2cc(C(N)=O)nc3cc(F)ccc23)c(C(F)(F)F)nn1Cc1ccc(C(C)(C)C)cc1	-19.8

Series 2
Cell line: HaCaT
Tested at: 100 µM
Time: 18 h
Compound	viability
CCC[C@H](N[C@@H](C)C(=O)N1[C@H](C(=O)O)C[C@@H]2CCCC[C@@H]21)C(=O)O	108%
Oc1cc(O)c(Cl)cn1	119%
CO[C@H]1C[C@@H]2CC[C@@H](C)[C@@](O)(O2)C(=O)C(=O)N2CCCC[C@H]2C(=O)O[C@H]([C@H](C)C[C@@H]2CC[C@@H](OCCO)[C@H](OC)C2)CC(=O)[C@H](C)/C=C(\C)[C@@H](O)[C@@H](OC)C(=O)[C@H](C)C[C@H](C)/C=C/C=C/C=C/1C	29.6%
CCN(CCO)CCCC(C)Nc1ccnc2cc(Cl)ccc12 (stereo not shown)	112%
C=CC[N+]1([C@H]2C[C@H]3[C@@H]4CC[C@H]5C[C@H](O)[C@@H](N6CCOCC6)C[C@]5(C)[C@H]4CC[C@]3(C)[C@H]2OC(C)=O)CCCC1	80.4%

Series 3
SMILES: Nc1ncnc2c1cnn2-c1ccccc1
Effect on: enzyme activity
Action: inhibitor
Tested at: 0.5 µM
Reference: control
target	remaining activity [%]
ULK2 (Homo sapiens, UniProt Q8IYT8)	95.1
MERTK (Homo sapiens, UniProt Q12866)	94.3
FGFR1 (Homo sapiens, UniProt P11362)	93
FGFR3 (Homo sapiens, UniProt P22607)	97.9
CSNK1G2 (Homo sapiens, UniProt P78368)	95.1
MST1R (Homo sapiens, UniProt Q04912)	100
WEE1 (Homo sapiens, UniProt P30291)	90
LCK (Homo sapiens, UniProt P06239)	95.5
EPHA3 (Homo sapiens, UniProt P29320)	95
MAPKAPK2 (Homo sapiens, UniProt P49137)	98.6
MAP2K2 (Homo sapiens, UniProt P36507)	96.9
RPS6KA2 (Homo sapiens, UniProt Q15349)	92.5
MAPK3 (Homo sapiens, UniProt P27361)	90.1
TEK (Homo sapiens, UniProt Q02763)	92.2

Series 4
SMILES: CC(C)(C(=O)O)[C@H](NC(=O)Cc1cccc(I)c1)c1ccc2oc(=O)[nH]c2c1
Method: Incucyte 3D growth
Tested at: 30 µM
Direction: higher = more growth
cell line	setting	spheroid area
NCI-H358	228 h	9.55e+06 a.u. and 7.38e+06 a.u. and 8e+06 a.u. and 9.59e+06 a.u. and 1.1e+07 a.u. and 7.8e+06 a.u.
MEL-JUSO	456.52 h	5.42e+07 a.u. and 2.8e+07 a.u. and 2.62e+07 a.u. and 2.78e+07 a.u. and 7.46e+07 a.u. and 3.78e+07 a.u.
NCI-H1437	132 h	2.82e+07 a.u. and 3.72e+07 a.u. and 3.37e+07 a.u. and 3.1e+07 a.u. and 2.83e+07 a.u. and 2.9e+07 a.u.
MEL-JUSO	270.52 h	3.71e+07 a.u. and 1.85e+07 a.u. and 2.05e+07 a.u. and 2.27e+07 a.u. and 2.4e+07 a.u. and 2.13e+07 a.u.

Mixed results
Structure (SMILES)	target	test	setting	endpoint	value
COc1ccc2[nH]c3c4[nH]c5ccc(OC)cc5c4c4c(c3c2c1)C(=O)NC4=O	Mast/stem cell growth factor receptor Kit (KIT, Homo sapiens, UniProt P10721, A829P)	binding	1 µM	remaining binding	15%

Some of these lines once more (series 3):
target	remaining activity [%]
MAPK3 (Homo sapiens, UniProt P27361)	90.1
MAP2K2 (Homo sapiens, UniProt P36507)	96.9
